Assay results collected from several papers.
A part holds a random share of what one study measured. Substitutions count along the parent as printed.

Study 1 — target: FOSL2, bZIP domain (human); technique: DHFR protein complementation; sample: yeast; reference: wild-type JUN-FOS pair; direction: higher = stronger binding; endpoint: binding fitness
Notes: single substitutions, most at no-binding floor
Parent: JUN, bZIP domain (human); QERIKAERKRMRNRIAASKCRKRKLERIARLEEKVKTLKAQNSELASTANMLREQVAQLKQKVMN; partner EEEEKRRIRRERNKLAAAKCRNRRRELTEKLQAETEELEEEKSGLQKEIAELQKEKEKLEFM
S43F: -0.0182 natural log
L59H: -0.964 natural log
S47D: 0.164 natural log
L38F: -0.674 natural log
S43I: 0.0622 natural log
R30Y: 0.0981 natural log
L52V: -0.471 natural log
V35P: -1.18 natural log
T37L: 0.139 natural log
S43T: 0.109 natural log
L31N: -0.592 natural log
L45Y: -0.189 natural log
A29H: 0.0375 natural log
A49I: -0.158 natural log
K39E: -0.388 natural log
K36M: 0.157 natural log
E32V: -0.0122 natural log
L38Y: -0.785 natural log
Q41M: -0.0225 natural log
T48V: 0.0766 natural log
A49P: -1.25 natural log
V56N: -0.542 natural log
S43R: 0.149 natural log

Study 2 — technique: protein-binding microarray; molecule type: double-stranded DNA, one strand shown; sample: in vitro; tested at: not given; direction: higher = stronger binding; endpoint: E-score
Target: Myc proto-oncogene protein, bHLH-zipper, MAX partner unstated (MYC, Homo sapiens, UniProt P01106, residues 368-449)
Chain of UniProt P01106 (368-449, looked up): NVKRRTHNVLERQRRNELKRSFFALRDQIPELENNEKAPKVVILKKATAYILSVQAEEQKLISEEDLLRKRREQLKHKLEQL
Notes: k-mer, scored over probes, only values ≥0.25
AACGAGGT: 0.293
CATGTGGC: 0.48
ACAGCACG: 0.339
CCCGCACG: 0.299
CGACCTCG: 0.256
CATGCGGA: 0.431
CGGGACAC: 0.297
ACGTGTTG: 0.412
ATGTGCGC: 0.374
CGCGCGCG: 0.321
ACACACGT: 0.397
ATGGTGTG: 0.337
TCACGTGA: 0.436
AACACGTG: 0.496
CGCGTGGC: 0.475
GGGGACCA: 0.26
ACGTGGAG: 0.426
ACCATGAC: 0.256
ATGTGGGC: 0.351

Study 3 — technique: RNA Bind-n-Seq; molecule type: RNA; sample: in vitro; tested at: 20 nM; notes: 6-mer, flanks averaged, single round; added: 150 mM LiCl; reference: input library; direction: higher = stronger binding; endpoint: 6-mer enrichment (R)
Target: TAR DNA-binding protein 43, full length, His tag (TARDBP, Homo sapiens, UniProt Q13148, residues 1-414)
ACCUAG: 0.815
CUGAGC: 0.88
ACCUAC: 0.862
UGUUGC: 1.2
UAAACG: 0.82
AGACCU: 0.827
UCGGCG: 0.958
UACGGA: 0.911
CCAGAA: 0.838
GGCUUC: 0.87
UUUAGC: 1
ACCCCG: 1.01
CAGCAG: 0.905
GCGGUC: 0.955
AAUUUC: 0.944
AGUGUU: 1.26

Study 4 — technique: protein-binding microarray; molecule type: double-stranded DNA, one strand shown; sample: in vitro; tested at: 0.8 µM; notes: whole 60-bp probe, no competitor; direction: higher = stronger binding; endpoint: fluorescence intensity
Target: Centromere-binding protein 1, full length, N-terminal tag (CBF1, Saccharomyces cerevisiae, UniProt P17106, residues 1-351)
Chain of UniProt P17106 (whole entry, looked up): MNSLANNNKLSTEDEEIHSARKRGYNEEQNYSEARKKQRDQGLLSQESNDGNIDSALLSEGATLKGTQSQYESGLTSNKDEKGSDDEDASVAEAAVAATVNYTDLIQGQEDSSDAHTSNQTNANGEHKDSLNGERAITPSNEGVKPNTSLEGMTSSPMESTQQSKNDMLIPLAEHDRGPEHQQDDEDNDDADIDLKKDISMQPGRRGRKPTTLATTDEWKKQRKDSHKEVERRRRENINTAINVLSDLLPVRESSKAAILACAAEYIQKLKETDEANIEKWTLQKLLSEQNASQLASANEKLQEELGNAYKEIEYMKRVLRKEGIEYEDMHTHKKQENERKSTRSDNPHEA
CTATATTTTAATCAACACCTGATATTTTCTTGATTCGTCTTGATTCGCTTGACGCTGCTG: 881 a.u.
CTATCACGAAATGATGACACGATAGCATGTGCTTTCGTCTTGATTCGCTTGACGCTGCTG: 695 a.u.
CCTAACTACTATAATAGCATCAGATAGCTTCGTACAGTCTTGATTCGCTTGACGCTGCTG: 485 a.u.
TGTACGAAGCTATGTCACGCTGCTATAGTAGTTAGGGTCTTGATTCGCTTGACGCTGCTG: 948 a.u.
CTATCAAACCTCGTTTATGTCACGTAGAAAGAATTCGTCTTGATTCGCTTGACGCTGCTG: 1060 a.u.
GAATTAGCCCCTTGTCACGCTGCACGACGCGTATAGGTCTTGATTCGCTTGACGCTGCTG: 662 a.u.
GAATATTGTCATACTGACGTGTACCACTCTGAGTAGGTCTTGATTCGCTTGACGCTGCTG: 541 a.u.
CTAACATAACTTGAAAAGCTGATGGGTGTCAAGTTCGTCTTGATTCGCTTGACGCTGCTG: 514 a.u.
GAATTATGGTCCCACCACGCGTACTGTAAACAATAGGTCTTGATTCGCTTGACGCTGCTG: 535 a.u.
CTAAAATTTGGAAGTCATGCAAGAAGAAGAAGCTTCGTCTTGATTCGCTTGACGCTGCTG: 557 a.u.
GAACACCGCTTCCATTATCAGGTGCCTCTGCTCTAGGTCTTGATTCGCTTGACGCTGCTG: 757 a.u.
CTATTCTCACTCGTATACGCAATCATTTAAATATTCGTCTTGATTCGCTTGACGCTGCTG: 511 a.u.
GAAATACGACTTGCGCACATGTGAATCATTAACTAGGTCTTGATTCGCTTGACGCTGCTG: 855 a.u.
CTAGGGAAGACTCAGCACGTTATATACTATTAATTCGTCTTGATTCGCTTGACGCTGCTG: 644 a.u.
GAAAAAAATTTCATCCACGCAACTTTTTTTTGGTAGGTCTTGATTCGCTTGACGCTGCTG: 560 a.u.
CTATCCTTTCTCCATCACATGAGTACGAGGAGGTTCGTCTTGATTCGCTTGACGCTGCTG: 1180 a.u.
CTAATCATAGTACTGATCATGAACCAGGCTCATTTCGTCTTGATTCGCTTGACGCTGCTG: 484 a.u.

Study 5 — technique: RNA Bind-n-Seq; molecule type: RNA; sample: in vitro; tested at: 365 nM; reference: no-protein control; direction: higher = stronger binding; endpoint: RBNS enrichment (R)
Target: RNA binding protein fox-1 homolog 2, RRM domain, GST-SBP tag (RBFOX2, Homo sapiens, UniProt O43251-10, residues 100-194)
Notes: natural RNA segment, single round, ends assumed
Target sequence (chain): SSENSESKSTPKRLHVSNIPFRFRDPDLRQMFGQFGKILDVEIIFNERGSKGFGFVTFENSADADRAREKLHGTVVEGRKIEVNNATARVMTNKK
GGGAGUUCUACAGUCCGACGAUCUGCAGACUCUGGGACCUGACAAAACAGUCAGAGCCUGAGUGCACUGCAGCCUGAACUCCCUUGAGCAGCGCUAUAAGGGACUUUGCACUUUAAAAAGGGGAUGCCUGUCAUGGAAUUCUCGGGUGCCAA: 0.403
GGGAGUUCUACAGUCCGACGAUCCGUUAAAUUUUGUUUGUAUUAAGCACUUUUAAUUUUAUCCUUCCUAAAAAUAGUUUAUUGUAUCUGACAAGAAACUUACUUAACCAUUGUGUCCUUCCCAUCUUUUUUGUUGGAAUUCUCGGGUGCCAA: 0.631
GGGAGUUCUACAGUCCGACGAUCAUUACUUUUAUGAUAGUAGAAAUAUUAUAAGCCUAAGACAUGGACUAUCCAUUUUGUAAAACGGAUUUAAGGACAAUUAUCAGGUAUAAUUAAAAUUCUGUUGAAGAAGAUGGAAUUCUCGGGUGCCAA: 0.304
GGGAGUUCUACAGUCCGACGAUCAUAGAACUGUCUGCUCUCCACCUUUUCCUCACUCUACAUUUAGUCAUCACACUGAACAGGAUGUGGCCUGCUGACAGUGAGUAGCUGAAGUGCCUGUUUGGUAAGUAGGUUGGAAUUCUCGGGUGCCAA: 0.351
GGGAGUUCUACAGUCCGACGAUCAUAUAAUAAAUGGGAAAUGUCGAUUUUCAAUAAUAGACUUAUAUGCAGGCUGUCGUUCCGGUUAUGUUGUGUAAGUCAACUCUUCAGCCUCAUUCACUGUCCUGGCUUUUUGGAAUUCUCGGGUGCCAA: 0.346
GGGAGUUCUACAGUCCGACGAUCGCUGCAGAGAAAUCAGUCUUACCCAGCAAGGGGAAGGCACACACAAGUUUGCAGAAAGUGUCUCAGAUCGCGUUUCUGAUUGAGUGAUCCGAGCUGGACUCCUCCUGUAGUGGAAUUCUCGGGUGCCAA: 0.948
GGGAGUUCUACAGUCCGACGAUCAUGAAGGUAUAUUUUGUGUUAUAGUUGUUGAUGAGUUCUUUGGUUUUCUGUAUUUUUCCCCCUCUCUUUAAAACAUCACUGAAAUUUCAAUAAAUUUUUAUUGAAAUGUCUGGAAUUCUCGGGUGCCAA: 0.984
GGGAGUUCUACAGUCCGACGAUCUCUGUGUGAAUAUGUUUUAGAUGUUUAUAUACAUUUUGAAGAGACCCAGUAGCCCAUAGCACAAAUCUUGUGAACAUCUGAUAUGUUUUCAAGUGGCUACCUAGGAUAAGUGGAAUUCUCGGGUGCCAA: 0.49
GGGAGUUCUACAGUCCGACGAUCAGUCUGCUUCUGUCCCAGCCACAUCCACUUGUCAAUAAAGGCCUUCUGUACCUGACUUUGGGCAACAGGUAUCAAAAGCCUCAAGAGAACAGUUUCUCUGAUAAGAUUAUUGGAAUUCUCGGGUGCCAA: 0.396
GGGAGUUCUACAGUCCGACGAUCCUUGCCUUCUAUUCAGUGGACAAUCAGGAGAAGCUUCUGUAUGAGUGUACCAUCUCUGCCUCCUCUCCUUUGUACCCUGCCUUCUGGCUGUAUGGCUUACAUCCUGGAAAUGGAAUUCUCGGGUGCCAA: 0.388
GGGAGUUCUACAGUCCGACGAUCGAGCAACUUACUUCCUUUCAUCUUACACAAUGAACCUUGUAAUUUAAUUAUGAUUUUCUCUUCAUACGAGCUGUUAGAAAGCUCAGCAUUAAAUUUGUGGCUCACCUCUAUGGAAUUCUCGGGUGCCAA: 0.51
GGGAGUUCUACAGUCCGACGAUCGGGCAAAAUGUUUGGUUUUUUCUCUUAAAAAAAAUAACACCCCAUUACCAAAAGAAAAGGUAAGGUGGCAACCUUAUUUUUAAUAGUUUGAAAUGAUGAUAAUCCUAAUUUGGAAUUCUCGGGUGCCAA: 0.543

Excerpt of the above (study 1):
K36M: 0.157 natural log
E32V: -0.0122 natural log
L52V: -0.471 natural log
T48V: 0.0766 natural log
S43I: 0.0622 natural log
